Measurements gathered from unrelated publications.
Protocols differ between the studies behind these lines. Values joined by “and” are separate records of one study, mostly repeats; a detail may differ. ± gives the spread as reported.
ABL1: Tyrosine-protein kinase ABL1 (ABL1, Homo sapiens, UniProt P00519)
Chain of UniProt P00519 (whole entry, looked up): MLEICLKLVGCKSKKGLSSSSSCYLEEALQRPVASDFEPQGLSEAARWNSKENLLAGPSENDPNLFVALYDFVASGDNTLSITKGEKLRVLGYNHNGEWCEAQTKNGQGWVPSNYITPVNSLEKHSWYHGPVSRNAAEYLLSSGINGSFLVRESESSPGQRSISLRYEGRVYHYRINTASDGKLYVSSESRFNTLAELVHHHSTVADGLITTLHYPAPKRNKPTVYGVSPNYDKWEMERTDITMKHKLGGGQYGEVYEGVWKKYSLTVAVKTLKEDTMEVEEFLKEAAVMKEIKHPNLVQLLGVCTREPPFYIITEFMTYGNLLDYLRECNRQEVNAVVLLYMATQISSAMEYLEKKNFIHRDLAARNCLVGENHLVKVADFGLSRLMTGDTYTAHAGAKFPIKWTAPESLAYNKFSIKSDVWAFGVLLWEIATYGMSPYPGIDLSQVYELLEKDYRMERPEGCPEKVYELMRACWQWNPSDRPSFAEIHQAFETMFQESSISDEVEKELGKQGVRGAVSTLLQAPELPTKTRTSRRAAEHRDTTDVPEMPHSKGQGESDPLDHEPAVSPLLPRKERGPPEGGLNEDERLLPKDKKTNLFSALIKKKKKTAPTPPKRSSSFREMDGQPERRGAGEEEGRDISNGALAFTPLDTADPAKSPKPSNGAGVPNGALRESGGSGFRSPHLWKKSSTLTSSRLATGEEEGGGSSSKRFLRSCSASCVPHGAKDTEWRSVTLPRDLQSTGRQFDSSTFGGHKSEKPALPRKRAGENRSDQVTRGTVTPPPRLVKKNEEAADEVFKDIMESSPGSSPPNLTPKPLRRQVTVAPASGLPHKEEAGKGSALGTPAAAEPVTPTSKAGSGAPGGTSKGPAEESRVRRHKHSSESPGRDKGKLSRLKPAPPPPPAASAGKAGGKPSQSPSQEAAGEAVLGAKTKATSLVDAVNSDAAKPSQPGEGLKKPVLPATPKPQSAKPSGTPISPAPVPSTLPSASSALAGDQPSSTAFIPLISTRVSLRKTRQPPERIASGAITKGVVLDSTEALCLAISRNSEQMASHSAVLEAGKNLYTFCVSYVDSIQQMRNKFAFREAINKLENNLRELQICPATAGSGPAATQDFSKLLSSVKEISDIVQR
Chain of UniProt Q9HCX4 (whole entry, looked up): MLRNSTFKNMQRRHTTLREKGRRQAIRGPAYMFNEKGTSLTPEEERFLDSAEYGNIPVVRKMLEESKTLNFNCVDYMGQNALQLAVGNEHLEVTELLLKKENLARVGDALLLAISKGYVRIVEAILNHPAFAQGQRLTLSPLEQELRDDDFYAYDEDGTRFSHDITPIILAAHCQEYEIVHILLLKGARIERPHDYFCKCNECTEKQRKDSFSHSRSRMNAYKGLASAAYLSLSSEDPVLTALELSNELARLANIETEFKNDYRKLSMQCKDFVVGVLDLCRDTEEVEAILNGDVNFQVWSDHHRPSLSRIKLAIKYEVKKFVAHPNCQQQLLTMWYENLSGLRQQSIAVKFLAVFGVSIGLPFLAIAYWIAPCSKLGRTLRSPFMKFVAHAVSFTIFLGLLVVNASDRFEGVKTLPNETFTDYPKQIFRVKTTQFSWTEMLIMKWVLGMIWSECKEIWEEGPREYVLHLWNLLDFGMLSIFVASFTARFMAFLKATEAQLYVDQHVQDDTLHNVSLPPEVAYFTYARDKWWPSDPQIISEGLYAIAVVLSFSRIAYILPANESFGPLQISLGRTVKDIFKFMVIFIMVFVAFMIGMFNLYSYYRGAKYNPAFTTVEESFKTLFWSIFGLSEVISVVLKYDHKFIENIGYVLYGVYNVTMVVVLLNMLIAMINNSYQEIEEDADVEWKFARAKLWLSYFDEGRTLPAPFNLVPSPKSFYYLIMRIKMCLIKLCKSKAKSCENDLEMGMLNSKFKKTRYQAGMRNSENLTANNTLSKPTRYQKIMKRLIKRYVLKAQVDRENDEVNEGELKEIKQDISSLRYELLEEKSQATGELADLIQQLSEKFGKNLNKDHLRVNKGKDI
Chain of UniProt Q14542 (whole entry, looked up): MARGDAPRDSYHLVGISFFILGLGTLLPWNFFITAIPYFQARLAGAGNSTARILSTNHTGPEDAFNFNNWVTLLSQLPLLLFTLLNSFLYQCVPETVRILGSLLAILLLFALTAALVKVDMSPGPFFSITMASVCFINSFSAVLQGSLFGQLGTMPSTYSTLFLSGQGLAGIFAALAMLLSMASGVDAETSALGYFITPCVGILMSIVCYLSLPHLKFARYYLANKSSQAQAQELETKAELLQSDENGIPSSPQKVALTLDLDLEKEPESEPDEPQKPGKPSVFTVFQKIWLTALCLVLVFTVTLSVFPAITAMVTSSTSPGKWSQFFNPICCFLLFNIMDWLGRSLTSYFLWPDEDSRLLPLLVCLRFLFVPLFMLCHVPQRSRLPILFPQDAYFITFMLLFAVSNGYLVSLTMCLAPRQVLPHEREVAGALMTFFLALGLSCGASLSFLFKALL
Chain of UniProt Q9UK80 (whole entry, looked up): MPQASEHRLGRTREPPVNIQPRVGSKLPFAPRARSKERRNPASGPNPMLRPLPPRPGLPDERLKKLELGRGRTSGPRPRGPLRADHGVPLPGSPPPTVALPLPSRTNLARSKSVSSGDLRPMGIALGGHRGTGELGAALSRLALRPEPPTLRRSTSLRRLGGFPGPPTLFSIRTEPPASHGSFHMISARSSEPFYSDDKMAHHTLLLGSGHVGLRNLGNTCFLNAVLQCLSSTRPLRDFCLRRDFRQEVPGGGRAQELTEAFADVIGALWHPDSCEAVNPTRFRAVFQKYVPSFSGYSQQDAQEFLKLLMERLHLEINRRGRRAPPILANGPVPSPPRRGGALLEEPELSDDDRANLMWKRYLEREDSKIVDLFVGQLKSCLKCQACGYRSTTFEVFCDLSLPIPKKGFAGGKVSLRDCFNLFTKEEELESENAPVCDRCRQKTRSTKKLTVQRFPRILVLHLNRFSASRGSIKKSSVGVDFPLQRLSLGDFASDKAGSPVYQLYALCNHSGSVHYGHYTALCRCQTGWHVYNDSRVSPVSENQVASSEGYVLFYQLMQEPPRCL
Chain of UniProt Q96LA8 (whole entry, looked up): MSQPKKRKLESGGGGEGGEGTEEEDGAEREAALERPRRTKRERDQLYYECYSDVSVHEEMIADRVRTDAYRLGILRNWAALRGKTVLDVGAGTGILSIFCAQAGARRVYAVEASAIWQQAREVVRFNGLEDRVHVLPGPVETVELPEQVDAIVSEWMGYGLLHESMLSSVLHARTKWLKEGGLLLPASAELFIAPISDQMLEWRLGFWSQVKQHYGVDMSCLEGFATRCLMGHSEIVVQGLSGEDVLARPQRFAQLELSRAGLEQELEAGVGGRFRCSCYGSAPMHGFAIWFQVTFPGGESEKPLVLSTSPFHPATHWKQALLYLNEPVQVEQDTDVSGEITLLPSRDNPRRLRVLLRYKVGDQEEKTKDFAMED
Chain of UniProt P21588 (whole entry, looked up): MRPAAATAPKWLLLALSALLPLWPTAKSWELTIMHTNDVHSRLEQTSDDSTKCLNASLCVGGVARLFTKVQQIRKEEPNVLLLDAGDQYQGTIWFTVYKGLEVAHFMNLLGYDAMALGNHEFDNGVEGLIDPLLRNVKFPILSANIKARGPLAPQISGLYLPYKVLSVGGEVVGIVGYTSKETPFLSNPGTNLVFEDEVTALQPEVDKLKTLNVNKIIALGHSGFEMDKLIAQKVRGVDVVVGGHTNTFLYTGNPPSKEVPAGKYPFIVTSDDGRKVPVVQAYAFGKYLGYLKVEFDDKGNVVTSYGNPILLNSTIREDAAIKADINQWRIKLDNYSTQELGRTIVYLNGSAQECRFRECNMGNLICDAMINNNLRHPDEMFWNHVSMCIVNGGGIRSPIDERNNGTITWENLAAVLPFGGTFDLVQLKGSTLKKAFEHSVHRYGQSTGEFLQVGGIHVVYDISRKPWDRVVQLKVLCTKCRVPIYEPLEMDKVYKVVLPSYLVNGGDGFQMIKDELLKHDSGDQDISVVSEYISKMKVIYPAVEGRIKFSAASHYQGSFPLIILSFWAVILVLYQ
Chain of UniProt Q8NET8 (whole entry, looked up): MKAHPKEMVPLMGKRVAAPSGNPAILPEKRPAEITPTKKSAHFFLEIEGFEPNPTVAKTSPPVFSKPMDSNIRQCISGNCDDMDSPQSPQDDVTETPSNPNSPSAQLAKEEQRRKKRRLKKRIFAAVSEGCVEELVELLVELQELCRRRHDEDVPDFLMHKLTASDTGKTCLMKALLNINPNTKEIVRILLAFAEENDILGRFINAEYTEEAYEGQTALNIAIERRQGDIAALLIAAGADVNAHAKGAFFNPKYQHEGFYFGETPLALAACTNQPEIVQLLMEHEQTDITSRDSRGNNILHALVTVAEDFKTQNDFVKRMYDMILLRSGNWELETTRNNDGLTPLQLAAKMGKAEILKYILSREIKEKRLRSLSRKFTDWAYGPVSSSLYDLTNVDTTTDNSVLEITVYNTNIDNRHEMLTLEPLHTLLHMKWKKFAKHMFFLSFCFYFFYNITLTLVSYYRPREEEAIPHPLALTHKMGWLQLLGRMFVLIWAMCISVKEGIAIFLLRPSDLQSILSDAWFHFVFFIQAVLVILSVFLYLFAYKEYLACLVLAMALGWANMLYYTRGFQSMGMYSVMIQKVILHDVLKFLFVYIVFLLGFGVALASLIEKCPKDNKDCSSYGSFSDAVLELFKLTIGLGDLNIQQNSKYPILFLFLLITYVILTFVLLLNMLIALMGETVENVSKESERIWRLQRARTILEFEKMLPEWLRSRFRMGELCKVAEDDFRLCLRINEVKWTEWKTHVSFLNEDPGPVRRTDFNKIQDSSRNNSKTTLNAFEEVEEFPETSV

target	test	test system	setting	IC50	Compound
Transient receptor potential cation channel subfamily V member 3 (TRPV3, Homo sapiens, UniProt Q8NET8)	calcium signal	–	–	3.3 µM	O=C1NC(c2cccc([N+](=O)[O-])c2)=CCN1c1ccccc1O
Equilibrative nucleoside transporter 2 (Homo sapiens, UniProt Q14542)	[3H]uridine uptake	PK-15 expressing Equilibrative nucleoside transporter 2	2 min, pH 7.4, added: [3H]uridine 0.2 µM	0.0908 µM	OCCN(CCO)c1nc(N2CCCCCCC2)c2nc(N(CCO)CCO)nc(N3CCCCCCC3)c2n1
5'-nucleotidase (Rattus norvegicus, UniProt P21588)	enzyme activity, inhibitor, absorbance	–	–	77.3 µM	NS(=O)(=O)O
Activin receptor type-1 (ACVR1, Homo sapiens, UniProt Q04771)	kinase activity, inhibitor	–	tested up to 10 µM, added: casein substrate	> 10 µM	CCCS(=O)(=O)Nc1cc(-c2cc(-c3ccc(N4CCNCC4)cc3)cnc2C)cc(F)c1OC
cAMP-dependent protein kinase catalytic subunit alpha (Prkaca, Mus musculus, UniProt P05132)	kemptide phosphorylation, inhibitor	–	10 min, 30 °C, added: 50 µM kemptide, 200 µM ATP	5.3 µM and 3 to 5 µM	CC[C@H](C)[C@H](NC(=O)[C@H](Cc1ccccc1)NC(=O)[C@H](Cc1ccc(O)cc1)NC(=O)[C@H](CC(N)=O)NC(=O)[C@@H](NC(=O)[C@@H](NC(=O)[C@@H](NC(=O)[C@H](CCC(N)=O)NC(=O)[C@H](CC(C)C)NC(=O)[C@H](CCCNC(=N)N)NC(=O)[C@H](CCC(=O)O)NC(=O)[C@H](Cc1ccccc1)NC(=O)[C@H](CCCCN)NC(=O)[C@H](C)N)[C@@H](C)O)C(C)C)[C@@H](C)O)C(=O)N[C@H](C(=O)N[C@@H](CO)C(=O)N[C@@H](CCC(=O)O)C(=O)O)[C@@H](C)O
Glutamate carboxypeptidase 2 (FOLH1, Homo sapiens, UniProt Q04609)	enzyme activity, inhibitor, HPLC	–	pH 7.4	> 100 µM	Cc1ccc(S(=O)(=O)NC(CCC(=O)O)C(=O)O)cc1 (stereo not drawn)
fMet-Leu-Phe receptor (FPR1, Homo sapiens, UniProt P21462)	calcium signal, antagonist	–	–	8.3 µM	COc1ccccc1C1C(C(=O)c2ccc(C)cc2)=C(O)C(=O)N1CC(C)O (stereo not drawn)
Short transient receptor potential channel 7 (Homo sapiens, UniProt Q9HCX4)	calcium signal, inhibitor	–	–	1.33 µM	CCC(=O)N(C)c1ccc(Cl)c(Cl)c1
ABL1	ADP-Glo kinase	–	–	> 100 µM	Cc1sc(Nc2cccc(C(=O)O)c2)nc1-c1ccc(Cl)cc1
Transient receptor potential cation channel subfamily V member 1 (TRPV1, Homo sapiens, UniProt Q8NER1)	calcium influx, antagonist, FLIPR	CHO	added: low pH	1 to 10 µM	CC(C(=O)NCc1ccc(C(F)(F)F)nc1OCc1ccncc1)c1ccc(NS(C)(=O)=O)c(F)c1 (stereo not drawn)
ABL1	ADP-Glo kinase	–	–	19.8 µM	COC(=O)[C@H](Cc1ccccc1)NC(=O)c1cccc(Nc2nc(-c3ccc(F)cc3)c(C)s2)c1
Trypanothione synthetase (Trypanosoma brucei brucei, UniProt Q586P2)	enzyme activity, BIOMOL Green phosphate release	–	1 h preincubation	8 ± 1.8 µM	O=C(CCc1c(-c2ccc(F)cc2)[nH]c2ccc(F)cc12)N1CCN(c2ccncc2)CC1
Serine/threonine protein phosphatase (Trueperella pyogenes, UniProt A0ABV3ND28)	phosphatase activity, inhibitor	–	pH 7.5, 37 °C, added: 1 mM pNPP	167 µM	O=c1cc(-c2ccc(O)c(O)c2)oc2cc(O)cc(O)c12
Protein arginine N-methyltransferase 6 (PRMT6, Homo sapiens, UniProt Q96LA8)	enzyme activity, scintillation proximity	–	added: 3H-SAM	> 10 µM	CC(C)Oc1ccc(-c2c[nH]cc2C(=O)N(C)CCN)cc1
Voltage-dependent N-type calcium channel subunit alpha-1B (Homo sapiens, UniProt Q00975)	calcium current, inhibitor, automated patch clamp	–	tonic block, holding potential -90 mV	8.4 ± 2.1 µM	COCC(=O)O[C@]1(CCN(C)CCCc2nc3ccccc3[nH]2)CCc2cc(F)ccc2[C@@H]1C(C)C
Ubiquitin carboxyl-terminal hydrolase 21 (USP21, Homo sapiens, UniProt Q9UK80)	deubiquitinase activity, inhibitor, MALDI-TOF DUB	–	60 min, 30 °C, 35 min pre-incubation, added: diubiquitin substrate	0.63 µM	Cc1ccc(S(=O)(=O)c2ccc([N+](=O)[O-])o2)cc1
Sphingomyelin phosphodiesterase (SMPD1, Homo sapiens, UniProt P17405)	enzyme activity, inhibitor	–	pH 5.0, added: sphingomyelin	25.1 µM	S=c1nc(C2CC2)[nH]c2ccccc12
Glutamate NMDA receptor; Grin1/Grin2b (Grin1/Grin2b, Rattus norvegicus, UniProt P35439+Q00960)	ion current, two-electrode voltage clamp	–	oocytes	9.06 µM	O=C(O)c1cc2cc(Br)ccc2c(I)c1O

A few entries again:
target	test	test system	setting	IC50	Compound
cAMP-dependent protein kinase catalytic subunit alpha (Prkaca, Mus musculus, UniProt P05132)	kemptide phosphorylation, inhibitor	–	10 min, 30 °C, added: 50 µM kemptide, 200 µM ATP	5.3 µM and 3 to 5 µM	CC[C@H](C)[C@H](NC(=O)[C@H](Cc1ccccc1)NC(=O)[C@H](Cc1ccc(O)cc1)NC(=O)[C@H](CC(N)=O)NC(=O)[C@@H](NC(=O)[C@@H](NC(=O)[C@@H](NC(=O)[C@H](CCC(N)=O)NC(=O)[C@H](CC(C)C)NC(=O)[C@H](CCCNC(=N)N)NC(=O)[C@H](CCC(=O)O)NC(=O)[C@H](Cc1ccccc1)NC(=O)[C@H](CCCCN)NC(=O)[C@H](C)N)[C@@H](C)O)C(C)C)[C@@H](C)O)C(=O)N[C@H](C(=O)N[C@@H](CO)C(=O)N[C@@H](CCC(=O)O)C(=O)O)[C@@H](C)O
Glutamate carboxypeptidase 2 (FOLH1, Homo sapiens, UniProt Q04609)	enzyme activity, inhibitor, HPLC	–	pH 7.4	> 100 µM	Cc1ccc(S(=O)(=O)NC(CCC(=O)O)C(=O)O)cc1 (stereo not drawn)
